Published values of several laboratories.
Protocols differ between the studies behind these lines. Numbers after ± are the reported error.
CSNK2A2: Casein kinase II subunit alpha' (CSNK2A2, Homo sapiens, UniProt P19784)
EGFR L858R/T790M: Epidermal growth factor receptor (EGFR, Homo sapiens, UniProt P00533, L858R/T790M)
Ugcg: Ceramide glucosyltransferase (Ugcg, Mus musculus, UniProt O88693)
RAD52: DNA repair protein RAD52 homolog (RAD52, Homo sapiens, UniProt P43351)
DRD3: D(3) dopamine receptor (DRD3, Homo sapiens, UniProt P35462)

`O=C(Nc1ccc(CSc2ncccn2)cc1)c1ccc([N+](=O)[O-])cc1` gave an IC50 of > 100 µM (Apelin receptor (APLNR, Homo sapiens, UniProt P35414); β-arrestin recruitment, antagonist).
With `CCn1nc(Cl)c2c1-c1cnc(N)c(c1)O[C@H](C)c1cc(F)ccc1-c1nn(C)cc1C2` the IC50 was 0.0036 µM (ALK (Homo sapiens, UniProt Q9UM73, I1171T); enzyme activity, inhibitor; with: 1 mM ATP).
`O=C(Cc1ccc(OCc2ccccc2)cc1)NC1(C(=O)O)CCN(C(=O)c2ccc(-c3cccc(Cl)c3)cc2)CC1` gave an IC50 of > 10 µM (S1PR5 (Homo sapiens, UniProt Q9H228); antagonist, GloSensor cAMP).
With `NNC1(c2nnnn2CCc2c[nH]c3ccccc23)CCN(C(=O)OCc2ccccc2)CC1` the IC50 was 75.7 µM (Endothiapepsin (EAPA, Cryphonectria parasitica, UniProt P11838); enzyme activity, inhibitor, fluorescence).
For `Cc1nn(-c2cccc(N)c2)c(=O)c2cnc(Nc3ccc(N4CCNCC4)cc3)nc12`, the IC50 was > 10 µM (CSNK2A2; enzyme activity, inhibitor).
`C=CC(=O)Nc1cc(Nc2nccc(Nc3cc(Cl)c(F)cc3C(C)(C)O)n2)c(OC)cc1N1CC[C@H](N(C)C)C1` has an IC50 of 0.001 µM (EGFR L858R/T790M; enzyme activity, inhibitor).
With `OC[C@H]1[C@@H](O)[C@H](O)[C@@H](O)CN1CCCCCOCc1ccc(-c2ccccc2)c(F)c1` the IC50 was 0.0025 µM (Ugcg; enzyme activity, inhibitor, fluorescence).
`CCCN(CCC)CCCNC(=S)Nc1ccc2nc(N3CCN(C)CC3)cc(C)c2c1` gave an IC50 of 8.9 ± 1.6 µM (RAD52; D-loop formation; with: RAD52 450 nM).
With `Cc1noc(C)c1-c1cc(Cl)c(Nc2ccccc2C(=O)NO)c(Cl)c1` the IC50 was 9.2 µM (DHODH (Homo sapiens, UniProt Q02127); enzyme activity, inhibitor, absorbance).
The IC50 of `C=CS(=O)(=O)c1ccc(OC)c(-c2c[nH]c3ncc(-c4cncc(C(=O)N(C)C)c4)cc23)c1` is reported as > 1 µM (ABL1 (Homo sapiens, UniProt P00519); kinase activity, inhibitor, HTRF; 1 h preincubation, with: ATP 20 µM).
`Cc1[nH]c(C)c(S(=O)(=O)Nc2cccc(Cl)c2)c1C(=O)N1CCCC1` gave an IC50 of 21 µM (DRD3; β-arrestin recruitment, antagonist).
`CCCCc1nc2c([nH]1)[C@H](O)[C@@H](O)[C@H](O)[C@H]2O` has an IC50 of 0.35 µM (sweet almond β-glucosidase; inhibitor; 30 min, pH 6.8, with: p-nitrophenyl β-D-glucopyranoside).
`COc1cc(N2CCOCC2)ccc1Nc1ncc(Cl)c(Nc2ccccc2NS(C)(=O)=O)n1` has an IC50 of 0.00158 µM (EGFR L858R/T790M; enzyme activity, inhibitor, TR-FRET).
`OC[C@@H]1[C@@H](O)[C@H](O)[C@@H](O)CN1CCCCCOCc1ccc(-c2ccnc(F)c2)cc1` gave an IC50 of 0.15 µM (Ugcg; enzyme activity, inhibitor, fluorescence).
With `Cc1c(C(=O)Nc2ccc(S(=O)(=O)N(C)C3CCN(C)CC3)cc2)oc2c(Cl)cccc12` the IC50 was 16.2 ± 0.42 µM (RAD52; D-loop formation; with: RAD52 450 nM).
The IC50 of `OC[C@@H]1[C@@H](O)[C@H](O)[C@@H](O)CN1CCCCCOCc1ccsc1` is reported as 0.35 µM (Ugcg; enzyme activity, inhibitor; RAW264.7; in situ, with: C6-NBD-ceramide).
For `NS(=O)(=O)c1cc2c(cc1Cl)NC(CC1CCCC1)NS2(=O)=O` (stereo not drawn), the IC50 was 0.81 µM (ALDH1B1 (Homo sapiens, UniProt P30837); enzyme activity, inhibitor).
The IC50 of `OC[C@H]1[C@@H](O)[C@H](O)[C@@H](O)CN1CCCCCOCCC12CC3CC(CC(C3)C1)C2` is reported as 5 µM (Ugcg; enzyme activity, inhibitor, fluorescence).
With `Cc1ccc(Nc2cc(NC3CC3)n3ncc(C#N)c3n2)cc1NC(=O)C1CC1` the IC50 was 2.7 µM (CSNK2A2; target engagement in cells, BRET).
The IC50 of `CC1(C)C(=O)N=C2C1=C(O)C(=O)c1ccccc12` is reported as 1.1 µM (PRMT3 (Homo sapiens, UniProt O60678); enzyme activity, inhibitor).
`OC[C@@H]1[C@@H](O)[C@H](O)[C@@H](O)CN1CCCCCOCc1ccc(-c2ccccc2F)cc1` gave an IC50 of 0.075 µM (Ugcg; enzyme activity, inhibitor, fluorescence).
For `COc1ccc(Oc2ccc(S(=O)(=O)Nc3ccc4c(c3)N(C)C(=O)C4)cc2)cc1`, the IC50 was 3.22 µM (PLA2G4A (Homo sapiens, UniProt P47712); enzyme activity, inhibitor, fluorescence).
With `Cc1cc(-c2ccc(S(=O)(=O)C3CC(C(=O)NC4(C#N)CC4)N(C(=O)C4(C(F)(F)F)CC4)C3)c(C(F)(F)F)c2)ccn1` (stereo not drawn) the IC50 was > 10 µM (Calpain-2 catalytic subunit (Homo sapiens, UniProt P17655)).
With `OC[C@@H]1[C@@H](O)[C@H](O)[C@@H](O)CN1CCCCCOCc1ccc2ccccc2c1` the IC50 was 0.003 µM (Ugcg; enzyme activity, inhibitor, fluorescence).
For `[N-]=[N+]=NC(CC(=O)NO)Cc1c[nH]c2ccccc12` (stereo not drawn), the IC50 was 64 µM (ERAP2 (Homo sapiens, UniProt Q6P179); enzyme activity, inhibitor, fluorescence).
`OC[C@@H]1[C@@H](O)[C@H](O)[C@@H](O)CN1CCCCCOCc1ccc(-c2ccccc2)cn1` has an IC50 of 0.2 µM (Ugcg; enzyme activity, inhibitor, fluorescence).
For `COc1cc(O)c2c(c1)CCC21C=CC(=O)CC1` (stereo not drawn), the IC50 was 1450 µM (Si (Rattus norvegicus, UniProt P23739); enzyme activity, inhibitor, absorbance).
With `Fc1ccc(Nc2nc(NC3CCCCC3)c3cc(C(F)(F)F)ccc3n2)cc1F` the IC50 was 0.2 µM (ADRB2 (Homo sapiens, UniProt P07550, C125V); β-arrestin2 recruitment, antagonist, BRET; HEK293; mutant C125V, with: isoprenaline 1 µM).
For `Cc1cc(C)nc(NC(=S)N2CCN(c3ccc(C(F)(F)F)cn3)CC2)c1`, the IC50 was > 100 µM (GPD1 (Homo sapiens, UniProt P21695); enzyme activity, inhibitor).
`COCC1CN(C2CCN(c3cc(OC)c(Nc4ncc(Br)c(Nc5ccc6c(c5P(C)(C)=O)OCCO6)n4)cc3C)CC2)C1` has an IC50 of 0.00046 µM (EGFR (Homo sapiens, UniProt P00533, T790M); enzyme activity, inhibitor, TR-FRET).
With `O=C(CCCCCN1C[C@H](O)[C@@H](O)[C@H](O)[C@H]1CO)NC12CC3CC(CC(C3)C1)C2` the IC50 was 1 µM (Ugcg; enzyme activity, inhibitor, fluorescence).
For `Cc1ccc(NS(=O)(=O)c2c(C)[nH]c(C)c2C(=O)N2CCCC2)cc1F`, the IC50 was 10 ± 1.1 µM (DRD3; Go activation, antagonist, BRET; with: dopamine).
The IC50 of `OC[C@@H]1[C@@H](O)[C@H](O)[C@@H](O)c2nccn21` is reported as 0.065 µM (sweet almond β-glucosidase; inhibitor; 30 min, pH 6.8, with: p-nitrophenyl β-D-glucopyranoside).
With `Sc1nc[nH]n1` the IC50 was 1.9 ± 0.32 µM (CUGBP Elav-like family member 2, residues 40-212 (Homo sapiens, UniProt O95319); protein-RNA binding, inhibitor, fluorescence polarization; 200 nM protein, with: 10 nM RNA).
With `COc1ccc(NC(=O)c2cnn(-c3ccc([N+](=O)[O-])cc3)c2C(F)(F)F)cc1OC` the IC50 was 4.92 µM (PTGS2 (Homo sapiens, UniProt P35354); enzyme activity, inhibitor).
The IC50 of `Cc1ccc(-c2nc(C(=O)NCCCN3CCOCC3)cc3c2[nH]c2ccccc23)cc1` is reported as 2 µM (RAD52; ssDNA annealing, fluorescence quenching).
`CCN(CC)CC(=O)Nc1cccc(-n2cc(-c3ccc4ccc(-c5cn(-c6cccc(NC(=O)CN(CC)CC)c6)nn5)cc4c3)nn2)c1` has an IC50 of > 10 µM (MET (Homo sapiens, UniProt P08581); enzyme activity, inhibitor).
`Cn1nc(-c2ccc(Cl)cc2)c2cc(C(=O)NCCCN3CCCC3)sc21` has an IC50 of 4.1 ± 0.14 µM (RAD52; D-loop formation; with: RAD52 450 nM).
With `CC(C)=CCC1CC2=C(OC(C)(C)C(O)C2)C2(C(=O)C(C)C)C1(C)CCC1C(C)(C)OC(=O)C12O` (stereo not drawn) the IC50 was 1.03 µM (Beta-secretase 1 (Mus musculus, UniProt P56818); enzyme activity in cells, inhibitor).
The IC50 of `COc1ccc(Nc2cc(NC3CC3)n3ncc(C#N)c3n2)cc1` is reported as 0.24 µM (CSNK2A2; inhibitor).
`COc1c(Cl)cccc1Nc1c(-c2ccncc2C#C[C@@]2(C)CCCN2C(=O)/C=C/CN(C)C)[nH]c2c1C(=O)NCC2` has an IC50 of 0.28 µM (BUB1 (Homo sapiens, UniProt O43683)).
`CCOc1cc(CN2CC3(CC(N4CCC(C(=O)O)CC4)=NO3)C2)cc(OCC)c1-c1ccc(F)cc1` gave an IC50 of 1.95 µM (SSTR5 (Homo sapiens, UniProt P35346, W190A); cAMP level, agonist, GloSensor; AD293; W190A mutant, with: CST17 EC80 and forskolin).
